Published values collected from several papers.
Every numbered part comes from another study and shows a few of its results, in no order. Changes are numbered by the printed parent chain.
Sequence of UniProt P22455 (whole entry, looked up): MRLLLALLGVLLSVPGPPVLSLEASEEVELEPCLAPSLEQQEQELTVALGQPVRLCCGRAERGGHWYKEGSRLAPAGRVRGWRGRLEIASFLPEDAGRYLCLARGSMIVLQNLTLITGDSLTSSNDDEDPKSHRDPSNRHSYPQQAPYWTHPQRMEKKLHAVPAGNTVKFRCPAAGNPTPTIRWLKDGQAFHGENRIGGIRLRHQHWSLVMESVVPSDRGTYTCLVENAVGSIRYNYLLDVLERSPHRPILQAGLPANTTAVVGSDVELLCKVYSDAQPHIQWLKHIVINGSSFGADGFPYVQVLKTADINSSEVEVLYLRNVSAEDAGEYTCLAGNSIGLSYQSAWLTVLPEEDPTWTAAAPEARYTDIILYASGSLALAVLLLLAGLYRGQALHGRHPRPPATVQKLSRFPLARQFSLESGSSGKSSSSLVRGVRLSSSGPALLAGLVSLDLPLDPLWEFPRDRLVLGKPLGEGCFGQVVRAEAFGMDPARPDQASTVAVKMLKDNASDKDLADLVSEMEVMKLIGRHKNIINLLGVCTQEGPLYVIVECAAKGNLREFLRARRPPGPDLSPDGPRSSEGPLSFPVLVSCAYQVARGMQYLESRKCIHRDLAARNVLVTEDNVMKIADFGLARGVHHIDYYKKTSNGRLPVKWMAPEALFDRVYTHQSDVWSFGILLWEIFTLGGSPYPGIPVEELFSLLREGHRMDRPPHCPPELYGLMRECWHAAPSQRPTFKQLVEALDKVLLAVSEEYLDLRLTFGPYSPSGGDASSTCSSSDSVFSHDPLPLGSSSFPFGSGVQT

Study 1
Target: Interferon regulatory factor 7, full length, phosphomimetic (IRF7, Homo sapiens, UniProt Q92985, residues 1-503, S471D/S472D/S475D/S476D/S477D/S483D/S484D/S487D)
Technique: protein-binding microarray
Form: double-stranded DNA, one strand shown
Medium: in vitro
Tested at: 2200 nM top
Setting: 60-bp whole probe
Added: salmon DNA 0.4 mg/ml
Baseline: random background probes
Direction: higher = stronger binding
All sequences stand within: GCCTAGCAC … GTCTTGATTCGCTTGACGCTGCTG
Residues (chain): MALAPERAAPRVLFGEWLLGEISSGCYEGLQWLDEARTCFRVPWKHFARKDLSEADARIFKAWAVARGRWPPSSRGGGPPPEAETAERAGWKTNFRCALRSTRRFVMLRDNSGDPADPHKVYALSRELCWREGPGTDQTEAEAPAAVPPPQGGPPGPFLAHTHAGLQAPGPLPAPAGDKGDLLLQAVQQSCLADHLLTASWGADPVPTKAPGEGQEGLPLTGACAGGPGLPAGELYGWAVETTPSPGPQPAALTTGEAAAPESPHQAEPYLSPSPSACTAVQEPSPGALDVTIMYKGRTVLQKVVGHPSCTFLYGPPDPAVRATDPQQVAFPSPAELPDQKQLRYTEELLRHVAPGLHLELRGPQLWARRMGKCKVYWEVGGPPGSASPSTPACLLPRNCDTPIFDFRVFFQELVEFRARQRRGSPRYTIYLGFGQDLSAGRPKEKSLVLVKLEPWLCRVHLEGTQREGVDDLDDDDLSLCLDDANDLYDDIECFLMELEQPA
Strand	fitted relative affinity [z-score]
TTATATATCAGTCTCGATTAGTGCTAG	0.883
GACGGGTTCGGGTTTCGGGACGTGCTA	2.03
GACGGTTTCGGGTATGGGGACGTGCTA	5.44
TCACCTTGATGTCTGGGACTGTGCTAG	0.792
GGCGGTTTCGGACTGGGGACGTGCTAG	3.2
GACGGTTTCGGTATCGGGAGGTGCTAG	8.21
GACGATATCTGGTATCGAGACGTGCTA	0.398
TTAGGTATCGGACTTGGTTAGTGCTAG	0.327

Study 2
Target: PABPC1L2, full length, GST fusion (mouse, UniProt A0ABA7IW68)
Technique: RNAcompete
Form: RNA
Medium: in vitro
Tested at: 20 nM
Setting: 7-mer, probes averaged, single round
Baseline: mean of 7-mers
Direction: higher = stronger binding
Residues (chain): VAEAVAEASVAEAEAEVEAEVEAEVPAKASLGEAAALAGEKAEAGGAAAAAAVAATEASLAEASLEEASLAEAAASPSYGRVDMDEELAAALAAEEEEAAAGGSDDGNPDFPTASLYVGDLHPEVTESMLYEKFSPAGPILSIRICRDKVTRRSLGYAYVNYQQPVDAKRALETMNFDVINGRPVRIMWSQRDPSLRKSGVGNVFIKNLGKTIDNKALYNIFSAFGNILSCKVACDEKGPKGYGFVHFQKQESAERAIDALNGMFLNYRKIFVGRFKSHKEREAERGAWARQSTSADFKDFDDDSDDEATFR
Strand	7-mer Z-score
UGCGAAG	-0.142
CGCUGCA	-0.275
GGAUUAC	0.0714
AAACGUA	0.773
GAGCCAA	0.0587
CCUCGAA	-0.173
UAGGUCC	-0.171
GUGAAGC	0.144

Study 3
Target: ABI1, truncated, D143A, DHFR fusion (Arabidopsis thaliana)
Technique: DHFR PCA, deep sequencing
Medium: yeast
Setting: methotrexate growth selection, single substitutions
Added: (+)-ABA 0 µM
Baseline: wild-type fitted maximum
Direction: higher = stronger binding
Parent: PYL1, truncated, DHFR fusion (Arabidopsis thaliana); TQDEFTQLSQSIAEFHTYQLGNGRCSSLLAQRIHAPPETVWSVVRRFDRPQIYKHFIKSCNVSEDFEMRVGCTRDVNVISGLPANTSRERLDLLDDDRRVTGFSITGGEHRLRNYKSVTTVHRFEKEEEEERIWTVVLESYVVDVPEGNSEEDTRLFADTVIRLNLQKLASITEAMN; partner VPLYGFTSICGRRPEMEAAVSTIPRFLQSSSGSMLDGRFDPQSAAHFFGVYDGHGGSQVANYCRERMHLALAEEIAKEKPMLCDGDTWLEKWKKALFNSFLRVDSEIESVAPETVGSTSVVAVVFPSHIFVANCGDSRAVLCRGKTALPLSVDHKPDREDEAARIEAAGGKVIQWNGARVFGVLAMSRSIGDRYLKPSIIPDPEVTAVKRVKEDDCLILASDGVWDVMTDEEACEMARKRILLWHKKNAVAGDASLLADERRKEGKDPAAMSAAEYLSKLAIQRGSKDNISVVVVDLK
Substitution	relative binding score [%]
C72S	24.4
S117C	2.07
L156N	-7.76
S59N	11.2
T120Q	-9.41
Q31I	3.4
W134G	12.3
R123H	24.4

Other studies, line by line
Compound	target	effect on	action	tested at	baseline	measurement	value
CS(=O)(=O)CCNCc1ccc(-c2ccc3ncnc(Nc4ccc(OCc5cccc(F)c5)c(Cl)c4)c3c2)o1	Fibroblast growth factor receptor 4 (FGFR4, Homo sapiens, UniProt P22455)	enzyme activity	inhibitor	0.5 µM	control	remaining activity	96.6%

Some of these lines once more (study 3):
Substitution	relative binding score [%]
L156N	-7.76
S117C	2.07
